Assay results collected from several papers.
Lines come from different studies, so protocols differ. “And” joins repeats or separate records; there may be more than shown. ± marks the error that the study gave.
TGFBR1: TGF-beta receptor type-1 (TGFBR1, Homo sapiens, UniProt P36897)
UniProt P36897, sequence (whole entry, looked up): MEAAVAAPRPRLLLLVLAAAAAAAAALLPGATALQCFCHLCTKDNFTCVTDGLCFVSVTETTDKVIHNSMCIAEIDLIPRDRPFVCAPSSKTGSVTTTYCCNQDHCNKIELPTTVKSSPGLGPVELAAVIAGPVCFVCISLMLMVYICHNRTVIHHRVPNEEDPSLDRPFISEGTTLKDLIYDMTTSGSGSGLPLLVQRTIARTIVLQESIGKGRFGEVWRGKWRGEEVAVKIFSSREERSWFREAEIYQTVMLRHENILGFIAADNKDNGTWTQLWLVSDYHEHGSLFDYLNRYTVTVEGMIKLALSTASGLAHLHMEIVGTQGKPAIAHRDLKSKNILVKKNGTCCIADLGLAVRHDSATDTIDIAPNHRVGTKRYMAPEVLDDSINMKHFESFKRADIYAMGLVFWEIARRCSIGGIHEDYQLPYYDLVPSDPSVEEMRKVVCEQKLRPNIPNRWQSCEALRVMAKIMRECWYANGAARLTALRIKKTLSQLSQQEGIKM
FRK: Tyrosine-protein kinase FRK (FRK, Homo sapiens, UniProt P42685)
UniProt P42685, sequence (whole entry, looked up): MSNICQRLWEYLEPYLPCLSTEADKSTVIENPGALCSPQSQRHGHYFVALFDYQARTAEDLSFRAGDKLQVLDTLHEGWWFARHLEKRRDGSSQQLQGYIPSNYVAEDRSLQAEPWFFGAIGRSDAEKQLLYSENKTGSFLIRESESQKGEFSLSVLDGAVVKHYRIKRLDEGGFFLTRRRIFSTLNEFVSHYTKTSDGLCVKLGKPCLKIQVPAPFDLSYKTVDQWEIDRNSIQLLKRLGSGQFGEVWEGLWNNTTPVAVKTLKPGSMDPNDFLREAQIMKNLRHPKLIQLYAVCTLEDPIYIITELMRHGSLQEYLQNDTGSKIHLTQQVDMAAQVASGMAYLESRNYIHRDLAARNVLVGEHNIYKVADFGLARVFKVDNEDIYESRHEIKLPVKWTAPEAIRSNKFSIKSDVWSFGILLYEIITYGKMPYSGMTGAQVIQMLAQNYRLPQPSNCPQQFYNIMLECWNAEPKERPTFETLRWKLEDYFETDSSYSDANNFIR
TRPM7: Transient receptor potential cation channel subfamily M member 7 (TRPM7, Homo sapiens, UniProt Q96QT4)
UniProt Q96QT4, sequence (whole entry, looked up): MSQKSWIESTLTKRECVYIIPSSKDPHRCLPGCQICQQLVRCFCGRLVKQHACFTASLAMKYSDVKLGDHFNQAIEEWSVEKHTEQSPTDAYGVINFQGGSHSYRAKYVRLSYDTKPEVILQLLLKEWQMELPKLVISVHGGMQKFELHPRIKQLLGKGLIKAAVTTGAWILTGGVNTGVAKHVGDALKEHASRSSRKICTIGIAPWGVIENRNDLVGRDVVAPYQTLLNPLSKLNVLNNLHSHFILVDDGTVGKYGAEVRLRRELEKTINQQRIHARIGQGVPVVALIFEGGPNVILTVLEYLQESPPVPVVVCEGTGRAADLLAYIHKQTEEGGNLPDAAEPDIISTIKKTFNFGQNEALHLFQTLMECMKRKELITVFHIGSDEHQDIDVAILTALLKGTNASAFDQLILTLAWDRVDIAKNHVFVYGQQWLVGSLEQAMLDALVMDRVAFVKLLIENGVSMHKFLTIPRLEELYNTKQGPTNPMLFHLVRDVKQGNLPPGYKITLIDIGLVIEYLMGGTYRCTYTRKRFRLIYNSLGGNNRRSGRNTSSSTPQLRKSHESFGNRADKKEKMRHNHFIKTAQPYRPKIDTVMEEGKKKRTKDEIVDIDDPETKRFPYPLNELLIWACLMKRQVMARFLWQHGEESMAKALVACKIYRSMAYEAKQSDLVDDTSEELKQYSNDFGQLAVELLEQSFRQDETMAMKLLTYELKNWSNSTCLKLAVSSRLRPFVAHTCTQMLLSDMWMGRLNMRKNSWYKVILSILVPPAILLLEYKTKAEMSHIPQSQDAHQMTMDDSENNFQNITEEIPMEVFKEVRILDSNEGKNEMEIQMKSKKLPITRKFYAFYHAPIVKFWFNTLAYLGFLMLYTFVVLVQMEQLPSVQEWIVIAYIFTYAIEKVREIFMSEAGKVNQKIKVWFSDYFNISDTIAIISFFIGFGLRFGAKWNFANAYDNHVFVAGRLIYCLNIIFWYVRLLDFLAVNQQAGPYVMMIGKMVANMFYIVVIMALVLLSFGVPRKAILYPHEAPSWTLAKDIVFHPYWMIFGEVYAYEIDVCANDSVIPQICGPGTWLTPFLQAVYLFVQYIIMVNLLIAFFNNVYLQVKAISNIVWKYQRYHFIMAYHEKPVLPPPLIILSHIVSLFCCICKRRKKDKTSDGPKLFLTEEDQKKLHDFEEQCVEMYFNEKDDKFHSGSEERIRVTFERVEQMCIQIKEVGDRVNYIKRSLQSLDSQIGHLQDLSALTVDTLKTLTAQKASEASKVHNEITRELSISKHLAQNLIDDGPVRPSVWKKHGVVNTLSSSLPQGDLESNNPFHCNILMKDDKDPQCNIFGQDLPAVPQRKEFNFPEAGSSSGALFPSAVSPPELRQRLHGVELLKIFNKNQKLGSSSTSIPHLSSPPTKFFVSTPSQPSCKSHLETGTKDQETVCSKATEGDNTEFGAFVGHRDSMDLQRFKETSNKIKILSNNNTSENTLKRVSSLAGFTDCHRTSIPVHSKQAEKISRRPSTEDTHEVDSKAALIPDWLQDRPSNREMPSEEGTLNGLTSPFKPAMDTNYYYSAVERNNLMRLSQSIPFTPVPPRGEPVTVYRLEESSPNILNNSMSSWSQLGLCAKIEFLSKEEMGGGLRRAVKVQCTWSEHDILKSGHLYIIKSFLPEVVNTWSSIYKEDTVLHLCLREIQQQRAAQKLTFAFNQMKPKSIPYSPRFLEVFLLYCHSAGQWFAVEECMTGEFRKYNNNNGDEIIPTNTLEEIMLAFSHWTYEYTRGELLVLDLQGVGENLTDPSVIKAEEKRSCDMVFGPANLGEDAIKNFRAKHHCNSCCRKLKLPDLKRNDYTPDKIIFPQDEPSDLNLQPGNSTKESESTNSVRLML
IKBKE: Inhibitor of nuclear factor kappa-B kinase subunit epsilon (IKBKE, Homo sapiens, UniProt Q14164)
UniProt P11678, sequence (whole entry, looked up): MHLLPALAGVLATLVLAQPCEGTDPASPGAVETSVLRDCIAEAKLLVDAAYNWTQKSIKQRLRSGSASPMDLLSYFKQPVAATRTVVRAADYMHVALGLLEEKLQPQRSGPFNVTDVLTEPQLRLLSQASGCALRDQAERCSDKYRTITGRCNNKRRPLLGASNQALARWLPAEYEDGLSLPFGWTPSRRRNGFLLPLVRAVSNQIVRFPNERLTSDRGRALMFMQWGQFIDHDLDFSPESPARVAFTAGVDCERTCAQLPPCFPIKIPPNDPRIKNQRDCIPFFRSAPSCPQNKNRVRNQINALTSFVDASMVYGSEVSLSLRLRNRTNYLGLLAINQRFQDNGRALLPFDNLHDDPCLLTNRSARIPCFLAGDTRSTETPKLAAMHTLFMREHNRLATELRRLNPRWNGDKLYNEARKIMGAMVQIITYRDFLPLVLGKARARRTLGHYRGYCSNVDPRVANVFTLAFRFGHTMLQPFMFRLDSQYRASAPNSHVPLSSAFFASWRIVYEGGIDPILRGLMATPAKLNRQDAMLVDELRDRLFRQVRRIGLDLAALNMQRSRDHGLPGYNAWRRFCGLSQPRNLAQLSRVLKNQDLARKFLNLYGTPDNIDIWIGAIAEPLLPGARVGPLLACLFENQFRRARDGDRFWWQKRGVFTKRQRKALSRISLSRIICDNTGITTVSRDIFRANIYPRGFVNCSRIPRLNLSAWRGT
UniProt Q14164, sequence (whole entry, looked up): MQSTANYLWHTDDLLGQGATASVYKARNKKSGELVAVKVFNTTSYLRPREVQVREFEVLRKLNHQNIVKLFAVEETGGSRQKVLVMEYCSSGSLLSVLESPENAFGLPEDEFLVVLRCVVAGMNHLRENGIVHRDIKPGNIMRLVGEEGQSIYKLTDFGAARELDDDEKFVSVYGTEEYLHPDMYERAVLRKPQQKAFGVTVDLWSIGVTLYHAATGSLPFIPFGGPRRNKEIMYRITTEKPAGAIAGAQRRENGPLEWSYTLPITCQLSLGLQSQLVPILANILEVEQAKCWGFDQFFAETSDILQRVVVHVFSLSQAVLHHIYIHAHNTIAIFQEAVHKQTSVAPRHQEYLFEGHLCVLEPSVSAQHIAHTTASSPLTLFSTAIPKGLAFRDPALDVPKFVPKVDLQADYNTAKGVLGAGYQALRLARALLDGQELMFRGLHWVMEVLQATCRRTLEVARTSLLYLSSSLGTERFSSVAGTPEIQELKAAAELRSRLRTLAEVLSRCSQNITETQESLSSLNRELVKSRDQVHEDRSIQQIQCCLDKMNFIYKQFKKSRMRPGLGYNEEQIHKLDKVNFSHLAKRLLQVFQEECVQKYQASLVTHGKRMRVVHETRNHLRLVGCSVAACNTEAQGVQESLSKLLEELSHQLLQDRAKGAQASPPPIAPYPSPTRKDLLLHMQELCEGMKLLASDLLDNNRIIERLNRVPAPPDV
UniProt P48067, sequence (whole entry, looked up): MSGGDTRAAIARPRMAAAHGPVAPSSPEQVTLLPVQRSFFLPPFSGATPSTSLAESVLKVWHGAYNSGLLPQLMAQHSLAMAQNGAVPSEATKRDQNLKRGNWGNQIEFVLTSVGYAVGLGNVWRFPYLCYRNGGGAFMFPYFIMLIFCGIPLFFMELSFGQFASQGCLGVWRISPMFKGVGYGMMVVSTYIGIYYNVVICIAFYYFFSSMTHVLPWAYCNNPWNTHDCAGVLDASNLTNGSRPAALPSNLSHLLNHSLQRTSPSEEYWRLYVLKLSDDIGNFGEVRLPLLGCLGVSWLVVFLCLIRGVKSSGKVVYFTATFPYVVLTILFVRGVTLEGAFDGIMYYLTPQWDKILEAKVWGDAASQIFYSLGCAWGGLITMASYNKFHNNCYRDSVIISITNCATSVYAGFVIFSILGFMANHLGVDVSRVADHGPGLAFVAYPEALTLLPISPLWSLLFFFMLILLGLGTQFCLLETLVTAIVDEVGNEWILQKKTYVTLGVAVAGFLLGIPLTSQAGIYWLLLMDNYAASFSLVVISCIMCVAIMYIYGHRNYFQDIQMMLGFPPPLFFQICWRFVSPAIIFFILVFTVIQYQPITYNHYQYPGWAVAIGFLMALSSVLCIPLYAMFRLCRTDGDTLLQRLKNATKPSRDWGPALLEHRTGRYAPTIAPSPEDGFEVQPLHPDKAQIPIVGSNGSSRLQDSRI

O=C(NC1CCC1)c1ccc2nc(-c3cccc(NS(=O)(=O)NCCN4CCCCC4)c3)cn2c1 — remaining activity (TGFBR1; enzyme activity; 10 µM): 100%
COc1cc(F)ccc1-c1ncnc(Nc2cccc(C[S@](C)(=N)=O)c2)n1 — remaining activity (Muscle, skeletal receptor tyrosine-protein kinase (MUSK, Homo sapiens, UniProt O15146); kinase activity; 10 µM, with: 10 µM ATP): 53%
COc1cc(N2CCN(C)CC2)ccc1Nc1nc(N)n(C(=O)NCc2c(Cl)cccc2Cl)n1 — remaining activity (Mitogen-activated protein kinase kinase kinase 2 (MAP3K2, Homo sapiens, UniProt Q9Y2U5); enzyme activity; 10 µM; relative to: control): 16%
CC#CC(=O)N1CCC[C@H]1c1nc(-c2ccc(C(=O)Nc3ccccn3)cc2)c2c(N)nccn12 — remaining activity (FRK; kinase activity, inhibitor, HotSpot radiometric; 100 nM, with: ATP 10 µM): 101.3 ± 1%
CC(C)OCCn1c(=S)[nH]c(=O)c2[nH]ccc21 — remaining activity (Myeloperoxidase (MPO, Homo sapiens, UniProt P05164); H2O2 consumption, H2O2-specific electrode; 10 µM; relative to: control): 7.97%
COc1cc(Nc2ncc3c(n2)-c2ccc(Cl)cc2C(c2c(F)cccc2OC)=NC3)ccc1C(=O)O — remaining activity (ROCK1; kinase activity; 1 µM): 97%
Cc1cc(Nc2cc(N3CCN(C)CC3)nc(Sc3ccc(NC(=O)C4CC4)cc3)n2)[nH]n1 — remaining activity (TGFBR1; kinase activity, KinaseProfiler; 0.03 µM, species human; relative to: control): 101%
Cn1cc(-c2ccc(-c3cncc(Cl)c3N3CCC4(CCNC4=O)CC3)cc2)cn1 — fold change in expression (COLO 205; microarray, refers to: FLOT1; concentration not given, 6 h, gene set Flotillin-1; relative to: untreated cells): 1.12
Cc1cc(NC(=O)c2cccc3cc(-c4cccc5[nH]nc(N)c45)ccc23)ccc1F — remaining activity (TRPM7; enzyme activity, kinase profiling panel; 0.1 µM): 106%
NC/C(=C\F)COc1cccc(Cn2c(=S)[nH]c(=O)c3[nH]cnc32)c1 — remaining activity (Eosinophil peroxidase (Homo sapiens, UniProt P11678); H2O2 electrode; 15 µM; relative to: control): 59.7% and 28.5% and 35.8%
COc1ccc(F)cc1C(=O)NCc1ccc(-c2nn([C@@H](C)C(F)(F)F)c(N)c2C(N)=O)cc1 — remaining activity (IKBKE; kinase activity, inhibitor, HotSpot radiometric; 1000 nM, with: ATP at Km): 97.6 ± 3%
COc1cc2c(c(OC)c1OC)C(=O)c1c(cc(C)c(O)c1OC)C2=O — viability (HK-2 co-cultured with HepaRG; MTT; 266.67 µM, 24 h; relative to: untreated control): 58.8 ± 2.98%
C=CC(=O)N1CCC[C@@H](n2nc(-c3ccc(Oc4ccccc4)cc3)c3c(N)ncnc32)C1 — remaining activity (FRK; 1 µM): 178%
Cn1c(=O)n(-c2ccc(C(C)(C)C#N)cc2)c2c3cc(-c4cnc5ccccc5c4)ccc3ncc21 — remaining activity (AMPK; enzyme activity; 10 µM): 99%
O=C(Nc1nc2cccc(-c3ccc(CN4CCS(=O)(=O)CC4)cc3)n2n1)C1CC1 — patients with musculoskeletal disorders (rheumatoid arthritis patients; oral, 100 mg twice daily, 4 weeks, regardless of relatedness): 8.3%
C=CC(=O)N1CCC([C@@H]2CCNc3c(C(N)=O)c(-c4ccc(Oc5ccccc5)cc4)nn32)CC1 — remaining activity (IKBKE; kinase activity, inhibitor, HotSpot radiometric; 100 nM, with: ATP 10 µM): 93.3 ± 0.4%
O=C1NC(=O)/C(=C/c2ccc(-c3ccc(F)cc3O)o2)S1 — remaining activity (Dual specificity tyrosine-phosphorylation-regulated kinase 3 (DYRK3, Homo sapiens, UniProt O43781); enzyme activity; 10 µM): 18%
CC(C)(O)[C@H]1CC[C@H](Nc2ccc3ncc(-c4cccc(C(F)(F)F)c4)n3n2)CC1 — remaining activity (cGMP-dependent protein kinase 1, isoform beta (PRKG1, Homo sapiens, UniProt Q13976); enzyme activity, inhibitor; 1 µM, with: 10 µM ATP; relative to: DMSO): 101%
COc1cc(-c2cncc3c2CN(C)Cc2cc(N4CCNCC4)ccc2-3)cc(OC)c1OC — remaining activity (TRPM7; enzyme activity; 1 µM, with: 10 µM ATP; relative to: DMSO): 107%
C[C@@H](Oc1ccc(S(C)(=O)=O)cc1C(=O)N1C[C@@H]2C[C@]2(c2cc(C(F)(F)F)on2)C1)C(F)(F)F — remaining activity (Sodium- and chloride-dependent glycine transporter 1 (SLC6A9, Homo sapiens, UniProt P48067); glycine uptake, inhibitor, [3H]glycine uptake; 0.002 µM, log concentration 2, with: [3H]glycine, 3.5 mg/mL methyl-β-cyclodextrin; relative to: no inhibitor): 56.5%
CC(C)C(=O)Nc1n[nH]c2cc(-c3cccc(NS(=O)(=O)C4CC4)c3)ccc12 — remaining activity (Phosphatidylinositol 4-phosphate 5-kinase type-1 gamma (PIP5K1C, Homo sapiens, UniProt O60331); ADP-Glo; 370 nM; relative to: DMSO): 92.8%
COc1cc(/C=C/C(=O)CC(=O)/C=C/c2ccc(O)c(OC)c2)ccc1O — remaining activity (AMPK; 1 µM; relative to: DMSO): 93%
O=C(O)c1cc(O)c2c(c1)C(=O)c1cccc(O)c1C2=O — viability (HK-2 co-cultured with HepaRG; MTT; 133.33 µM, 24 h; relative to: untreated control): 65 ± 5.72%
O=C(O)c1ccc(Nc2ncc3c(n2)-c2ccc(Cl)cc2C(c2c(F)cccc2F)=NC3)cc1 — remaining activity (PRAK(h); kinase activity; 1 µM): 110%
C=CC(=O)N1CCCN(C(=O)c2cc(Sc3cnc(NC(=O)C4CC4)s3)c(C)cc2OC)C[C@H]1C — remaining activity (Tyrosine-protein kinase ZAP-70 (ZAP70, Homo sapiens, UniProt P43403); kinase activity, inhibitor; concentration not given; relative to: control): 59%

Excerpt of the above:
CC(C)C(=O)Nc1n[nH]c2cc(-c3cccc(NS(=O)(=O)C4CC4)c3)ccc12 — remaining activity (Phosphatidylinositol 4-phosphate 5-kinase type-1 gamma (PIP5K1C, Homo sapiens, UniProt O60331); ADP-Glo; 370 nM; relative to: DMSO): 92.8%
COc1cc(/C=C/C(=O)CC(=O)/C=C/c2ccc(O)c(OC)c2)ccc1O — remaining activity (AMPK; 1 µM; relative to: DMSO): 93%
